Literature values as cited in several papers.
Compare with care: the assays were run in different laboratories. ± marks the error that the study gave.
Sequence of UniProt Q96NX5 (whole entry, looked up): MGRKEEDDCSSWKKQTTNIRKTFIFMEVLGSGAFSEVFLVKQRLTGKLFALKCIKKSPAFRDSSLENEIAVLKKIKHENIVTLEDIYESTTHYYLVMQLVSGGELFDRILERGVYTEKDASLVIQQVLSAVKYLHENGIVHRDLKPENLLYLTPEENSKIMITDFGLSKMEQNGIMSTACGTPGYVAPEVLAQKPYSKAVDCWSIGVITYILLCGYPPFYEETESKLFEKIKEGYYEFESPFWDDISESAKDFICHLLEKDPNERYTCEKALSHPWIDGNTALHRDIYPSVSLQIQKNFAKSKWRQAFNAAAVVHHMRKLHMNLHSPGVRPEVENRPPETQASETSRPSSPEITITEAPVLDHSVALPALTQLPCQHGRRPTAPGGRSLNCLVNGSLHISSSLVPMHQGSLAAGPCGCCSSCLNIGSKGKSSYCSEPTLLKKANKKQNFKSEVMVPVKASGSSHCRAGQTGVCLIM

| Structure (SMILES) | tested on | test | system | setting | how to read | quantity | value |
| --- | --- | --- | --- | --- | --- | --- | --- |
| O=C(O)CSc1nnc(Br)n1-c1ccc(C2CC2)c2ccccc12 | HepG2 | mitochondrial membrane potential | – | concentration not given, Tox21 | – | activity outcome | inactive |
| CCNC(=O)c1cc2c(-c3cc(C(C)(C)O)ccc3Oc3c(C)cc(F)cc3C)cn(C)c(=O)c2[nH]1 | megakaryocyte colony-forming units | colony formation | – | – | – | EC50 | 645 nM |
| CC(C)(c1ccc(O)cc1)c1ccc(O)cc1 | C3A | micronucleus formation | – | – | – | lowest micronucleus-inducing concentration | ≥ 40 µM |
| Nc1cc(C(F)(F)F)c(-c2nc(N3CCOCC3)nc(N3CCOCC3)n2)cn1 | Calcium/calmodulin-dependent protein kinase type 1G (CAMK1G, Homo sapiens, UniProt Q96NX5) | enzyme activity | – | 10 µM | baseline: untreated | remaining activity | 93% |
| CCCCCCCC1(OC)OC(=O)c2cc(OC)cc(OC)c21 (stereo not drawn) | B16-F10 | cytotoxicity | – | – | – | IC50 | 95.8 µg/mL |
| C/N=C(\C)c1c(O)c2ccccc2oc1=O | HL-60 | – | – | – | – | cytotoxicity | 408 µM |
| COc1ccc(CNc2nc(-c3ccc(C(=O)O)cc3)nc3sc4ccccc4c23)cc1Cl | Caco-2 | – | – | – | – | efflux ratio | 0.6 to 1.6 |
| [Cl-].[Cl-].[Mo+4].c1cc[cH-]c1.c1cc[cH-]c1 | CAKI-1 | cytotoxicity | – | 48 h | – | IC50 | > 290 µM |
| CCC(CC)COC(=O)[C@H](C)N[P@](=O)(OC[C@H]1O[C@@](C#N)(c2ccc3c(N)ncnn23)[C@H](O)[C@@H]1O)Oc1ccccc1 | Caco-2 | cytotoxicity | – | – | – | CC50 | > 100 µM |
| CC(=O)O[C@H]1C(=O)[C@@]2(C)[C@H]([C@H](OC(=O)c3ccccc3)[C@]3(O)C[C@H](OC(=O)[C@H](O)[C@@H](NC(=O)c4ccccc4)c4ccccc4)C(C)=C1C3(C)C)[C@]1(OC(C)=O)CO[C@@H]1C[C@@H]2O | HCT-116 | cytotoxicity | – | – | – | IC50 | 0.00327 µM |
| CNC(C)C1CCC(N)C(OC2C(N)CC(N)C(OC3OCC(C)(O)C(NC)C3O)C2O)O1 (stereo not drawn) | Enterobacter cloacae | – | clinical isolate RKI-No_141/15 | – | – | MIC | ≤ 0.5 mg/L |
| CC(C)NCC(O)COc1cccc2ccccc12 (stereo not drawn) | Caco-2 | – | – | – | – | permeability (Papp) | 1.57e-05 cm/s |
| COc1cc(-c2oc3ccc(CCOC(C)=O)cc3c2C=O)ccc1O | tumour cell lines | cytotoxicity | – | – | – | IC50 | 5 to 18 µM |
| Cc1nccn1CC1CCc2c(c3ccccc3n2C)C1=O (stereo not drawn) | HepG2 | mitochondrial membrane potential | – | concentration not given, Tox21 | – | activity outcome | inactive |
| C=CCCC(=O)O | mouse 3T3 fibroblasts | cell viability | – | unbound medium concentration | – | IC10 | 78 µM |
| O=C1NC(=O)/C(=C/c2ccc3ncnc(N4CCC(F)(F)CC4)c3n2)S1 | Caco-2 | – | – | – | – | efflux ratio | 1.6 |
| COc1c(N2CCNC(C)C2)c(F)cc2c(=O)c(C(=O)O)cn(C3CC3)c12 (stereo not drawn) | HepG2 | mitochondrial membrane potential | – | concentration not given, Tox21 | – | activity outcome | inactive |

| Structure (SMILES) | tested on | test | system | setting | how to read | quantity | value |
| --- | --- | --- | --- | --- | --- | --- | --- |
| O=C1Oc2ccc3ccccc3c2C1c1c[nH]c2ccccc12 (stereo not drawn) | COLO 205 | cell viability | – | – | – | IC50 | > 100 µM |
| CC[C@H]1OC(=O)[C@H](C)[C@@H](O[C@H]2C[C@@](C)(OC)[C@@H](O)[C@H](C)O2)[C@H](C)[C@@H](O[C@@H]2O[C@H](C)C[C@H](N(C)C)[C@H]2O)[C@](C)(O)C[C@@H](C)C(=O)[C@H](C)[C@@H](O)[C@]1(C)O | HepG2 | mitochondrial membrane potential | – | concentration not given, Tox21 | – | activity outcome | inactive |
| COc1cccc2c1C(=O)c1c(O)c3c(c(O)c1C2=O)C[C@@](O)(C(=O)CO)C[C@@H]3O[C@H]1C[C@H](N)[C@H](O)[C@H](C)O1 | COLO 320 ABCB1-overexpressing | cell viability | – | – | – | IC50 | 3.07 µM |
| CC(C)(O/N=C(\C(=O)N[C@@H]1C(=O)N2C(C(=O)[O-])=C(C[n+]3ccccc3)CS[C@H]12)c1csc(N)n1)C(=O)O | Escherichia coli | – | clinical isolate RKI-No_521/16 | – | – | MIC | ≤ 2 mg/L |
| CCCCC(C)C(=O)O (stereo not drawn) | mouse 3T3 fibroblasts | cell viability | – | unbound medium concentration | – | IC10 | 6550 µM |
| Cc1nc(-c2nnc3n2CCN(C(=O)c2ccc(-c4cccs4)cc2)[C@@H]3C)cs1 | Caco-2 | – | – | 0.1% BSA | – | Papp A to B | 482 nm/s |
| CC[C@H]1OC(=O)[C@H](C)C(=O)[C@H](C)[C@@H](O[C@@H]2O[C@H](C)C[C@H](N(C)C)[C@H]2O)[C@](C)(OC)C[C@@H](C)C(=O)[C@H](C)[C@H]2N(CCCCn3cnc(-c4cccnc4)c3)C(=O)O[C@]12C | HepG2 | mitochondrial membrane potential | – | concentration not given, Tox21 | – | activity outcome | inactive |
| Nc1ccccc1NC(=O)c1ccc(CNC(=O)OCc2cccnc2)cc1 | A2780cisR | cell viability, MTT | – | 72 h | – | IC50 | 5.57 ± 0.43 µM |
| COc1cc2nc(N(C)CCCNC(=O)C3CCCO3)nc(N)c2cc1OC (stereo not drawn) | HepG2 | mitochondrial membrane potential | – | concentration not given, Tox21 | – | activity outcome | inactive |
| CN(C)c1ccc(C(=O)N(CC(=O)NCc2ccccc2)Cc2ccc(C(=O)Nc3ccccc3N)cc2)cc1 | CAL-27 | cell viability, MTT | – | 72 h | – | IC50 | 2 ± 0.15 µM |
| [N-]=[N+]=N[C@]1(CO)O[C@@H](n2ccc(N)nc2=O)[C@@H](F)[C@@H]1O | C8166 | – | – | – | – | CC50 | > 100 µM |
| CN(C)C/C=C/C(=O)Nc1cc2c(Nc3ccc(F)c(Cl)c3)ncnc2cc1O[C@H]1CCOC1 | Caco-2 | – | – | 3 µM | – | Papp B to A | 86.9 ± 8.3 nm/s |
| COc1ccccc1OCC(O)CN1CCN(CC(=O)Nc2c(C)cccc2C)CC1 (stereo not drawn) | HepG2 | mitochondrial membrane potential | – | concentration not given, Tox21 | – | activity outcome | inactive |
| C=CCC(CCC)C(=O)O (stereo not drawn) | mouse 3T3 fibroblasts | cell viability | – | unbound medium concentration | – | IC10 | 229 µM |
| O=C(O)c1[nH]c2ccccc2c1C1NCCc2ccccc21 (stereo not drawn) | COLO 320 ABCB1-resistant colon | cytotoxicity | – | – | – | IC50 | 53.6 µM |
| O=[N+]([O-])c1cn2c(n1)OC[C@@H](OCc1ccc(OC(F)(F)F)cc1)C2 | HepG2 | mitochondrial membrane potential | – | concentration not given, Tox21 | – | activity outcome | inactive |

Repeated from above:
| Structure (SMILES) | tested on | test | system | setting | how to read | quantity | value |
| --- | --- | --- | --- | --- | --- | --- | --- |
| CCNC(=O)c1cc2c(-c3cc(C(C)(C)O)ccc3Oc3c(C)cc(F)cc3C)cn(C)c(=O)c2[nH]1 | megakaryocyte colony-forming units | colony formation | – | – | – | EC50 | 645 nM |
| CN(C)c1ccc(C(=O)N(CC(=O)NCc2ccccc2)Cc2ccc(C(=O)Nc3ccccc3N)cc2)cc1 | CAL-27 | cell viability, MTT | – | 72 h | – | IC50 | 2 ± 0.15 µM |
| O=C1NC(=O)/C(=C/c2ccc3ncnc(N4CCC(F)(F)CC4)c3n2)S1 | Caco-2 | – | – | – | – | efflux ratio | 1.6 |
| CC(=O)O[C@H]1C(=O)[C@@]2(C)[C@H]([C@H](OC(=O)c3ccccc3)[C@]3(O)C[C@H](OC(=O)[C@H](O)[C@@H](NC(=O)c4ccccc4)c4ccccc4)C(C)=C1C3(C)C)[C@]1(OC(C)=O)CO[C@@H]1C[C@@H]2O | HCT-116 | cytotoxicity | – | – | – | IC50 | 0.00327 µM |
